Measured values from different studies.
Compare with care: the assays were run in different laboratories. “And” joins repeats or separate records; there may be more than shown. ± marks the error that the study gave.
Cell line: A549

| SMILES | assay | conditions | IC50 |
| --- | --- | --- | --- |
| C=C1C[C@](OC)([C@H](OCOC/C=C/B2OC(CC)(CC)C(CC)(CC)O2)C(=O)NC[C@@H]2C[C@@H](OC)C(C)(C)[C@@H](C[C@@H](COC)OC)O2)O[C@H](C)[C@@H]1C | cell viability, sulforhodamine B | 72 h, 37 °C, together with: 100 µM H2O2 | 0.024 ± 0.012 µM |
| COc1ccc2c(c1NC(=O)OCc1ncc([N+](=O)[O-])n1C)CCC=C2c1cc(OC)c(OC)c(OC)c1 | cell growth, SRB | 4 h exposure then 120 h oxic, oxic exposure then drug removal | > 95 µM |
| CN(C)C/C=C/C(=O)Nc1cc2c(Nc3ccc(F)c(Cl)c3)ncnc2cc1O[C@H]1CCOC1 | – | – | 2.21 ± 0.02 µM |
| C#CCCCC[C@H](C)C[C@@H](C)C(=O)O | cell growth, sulforhodamine B | – | 142 µM and 176 µM and 181 µM |
| COc1cc(C2=CCCc3c2ccc(OC)c3OCc2ccc([N+](=O)[O-])o2)cc(OC)c1OC | – | 4 h, anoxic | 0.03 ± 0.006 µM |
| COc1ccc(Cc2nccc3cc(OC)c(OC)cc23)cc1OC | mitochondrial oxygen consumption, Seahorse XF96 | – | 25 µM |
| C#CCCCC[C@H](C)C[C@@H](C)C(=O)N1C(=O)OC[C@H]1Cc1ccccc1 | cell growth, sulforhodamine B | – | 132 µM and 154 µM and 186 µM |
| COc1ccc2nccc(Cc3cccc(-c4ccc(COP(=O)(O)O)cc4)c3)c2c1 | mitochondrial oxygen consumption, Seahorse XF96 | – | 2.2 µM |
| COc1ccc2c(c1NC(=O)OCc1cnc([N+](=O)[O-])n1C)CCC=C2c1cc(OC)c(OC)c(OC)c1 | – | 4 h, anoxic | 2.54 ± 0.63 µM |
| CCN(CC)CCCC(C)Nc1ccnc2cc(Cl)ccc12 (stereo not drawn) | cell viability, alamarBlue | 6 h, OptiMEM, then DMEM 42 h | 474 µM |
| Nc1ncc(-c2cnn(C3CCNCC3)c2)cc1-c1nnc(CC2CC2)o1 | inhibitor, Western blot, item: phospho-Akt | – | 0.17 µM |
| COc1cc(C2=CCCc3c2ccc(OC)c3OC(C)c2ccc([N+](=O)[O-])s2)cc(OC)c1OC (stereo not drawn) | cell growth, SRB | 4 h exposure then 120 h oxic, oxic exposure then drug removal | 2.99 ± 1.19 µM |
